Assay results gathered from unrelated publications.
Each line is one published result; not all experiments were run side by side. Values joined by “and” are separate records of one study, mostly repeats; a detail may differ. ± gives the spread as reported.
Sequence of UniProt P16234 (whole entry, unmodified, looked up): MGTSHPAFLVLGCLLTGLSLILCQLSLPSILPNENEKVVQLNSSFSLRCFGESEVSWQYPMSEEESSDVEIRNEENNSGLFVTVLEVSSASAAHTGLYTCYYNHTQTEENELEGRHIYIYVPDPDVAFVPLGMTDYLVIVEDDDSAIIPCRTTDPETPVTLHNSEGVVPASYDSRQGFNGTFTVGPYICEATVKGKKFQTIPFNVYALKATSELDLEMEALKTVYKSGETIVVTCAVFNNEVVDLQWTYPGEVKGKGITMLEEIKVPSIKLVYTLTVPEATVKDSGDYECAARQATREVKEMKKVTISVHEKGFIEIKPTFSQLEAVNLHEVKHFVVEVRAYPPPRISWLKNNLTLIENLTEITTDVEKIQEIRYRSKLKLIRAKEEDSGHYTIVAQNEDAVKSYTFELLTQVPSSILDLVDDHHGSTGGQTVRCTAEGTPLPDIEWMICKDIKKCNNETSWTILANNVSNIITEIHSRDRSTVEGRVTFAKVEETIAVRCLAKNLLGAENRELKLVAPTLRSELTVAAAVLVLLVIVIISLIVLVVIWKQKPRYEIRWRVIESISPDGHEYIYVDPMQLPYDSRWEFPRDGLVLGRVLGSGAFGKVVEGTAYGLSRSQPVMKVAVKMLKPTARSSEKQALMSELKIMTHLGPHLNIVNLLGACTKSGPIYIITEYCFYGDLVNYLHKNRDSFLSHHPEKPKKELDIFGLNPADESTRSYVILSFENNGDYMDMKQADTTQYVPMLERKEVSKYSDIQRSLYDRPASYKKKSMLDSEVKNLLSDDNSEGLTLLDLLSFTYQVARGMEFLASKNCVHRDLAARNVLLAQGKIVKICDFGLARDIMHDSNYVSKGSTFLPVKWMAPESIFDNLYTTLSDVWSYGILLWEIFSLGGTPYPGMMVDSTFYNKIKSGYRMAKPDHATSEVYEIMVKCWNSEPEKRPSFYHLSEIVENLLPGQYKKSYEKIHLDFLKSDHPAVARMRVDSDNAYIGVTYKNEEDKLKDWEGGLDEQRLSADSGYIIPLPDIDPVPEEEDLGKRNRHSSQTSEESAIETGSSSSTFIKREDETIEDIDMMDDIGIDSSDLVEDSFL

`COC1CN([C@H]2CC[C@H]([C@@]3(C)Oc4c(Cl)cc(C(=O)NCc5c(SC)cc(C)[nH]c5=O)c(C)c4O3)CC2)C1`: “log2 fold change” 0.786 (RNA-seq, measured: HDAC11 mouse homolog; mouse, HT-1376 xenograft, whole blood; dose not given; reference: vehicle).
With `Cc1nc2c(F)cc(-c3nc(Nc4ccc(CNC(=O)CCCCCCC(=O)NO)cc4)ncc3F)cc2n1C(C)C` the inhibition was 101% (4T1; cell growth or viability, CCK-8; 0.3 µM, 48 h).
For `C=Cc1c(C)c2cc3nc(c(CC(=O)[O-])c4[n-]c(cc5nc(cc1[n-]2)C(C)=C5CC)c(C)c4C(=O)[O-])C(CCC(=O)[O-])C3C.[Cu+2].[Na+].[Na+].[Na+]` (stereo not shown), “cell growth and viability” read “decreased” (mouse breast cancer 4 T1 cells; IncuCyte; 5 to 50 µM, up to 120 h).
For `CCN(C(=O)c1cc(F)ccc1Oc1nncnc1N1CCC2(C1)CN([C@H](CCCN(C)CCOC)C(C)C)C2)C(C)C`, the GI50 was greater than 10 µM (DLD-1; cell growth or viability; 72 h).
With `C[n+]1cccc2cc(/C=N/NC(=O)C(=O)N/N=C/c3ccc4c(ccc[n+]4C)c3)ccc21` the ΔTm was 3 ± 0.9 °C (MYC parallel G4 DNA; FRET melting; 1 µM, DNA 0.2 µM).
For `CC(C)(C)c1cc(-c2ccc3cccnc3n2)nc(-c2ccc3cccnc3n2)c1.COc1ccncc1.[Cl-].[Cl-].[Ru+2].c1ccc2cc3nc4c5cccnc5c5ncccc5c4nc3cc2c1`, the phototoxicity index was 45 (A-375; resazurin; with: light 523 nm, 100 J/cm2; reference: dark EC50 over light EC50).
`CN1CCCNC(=O)c2cccc(c2)C(=O)NCCCN(C)CCCNc2cccc3c2C(=O)c2cccc(c2C3=O)NCCC1` — result for “log2 fold change”: -0.821 (SAS; RNA-Seq, measured: SYNE2 mRNA; 1 µM, 6 h; reference: untreated cells).
With `COc1cccc(CNC[C@@](O)(COCc2ccccc2)[C@@H]2CC[C@@H](C)C[C@H]2OCc2ccccc2)c1` the inhibition was 94.5% (MDA-MB-231; cell growth or viability, MTT; 30 µM, 72 h).
For `C=CC(=O)N1CCC[C@@H](n2nc(-c3ccc(Oc4ccccc4)cc3)c3c(N)ncnc32)C1`, the GI50 was greater than 10 µM (OCI-Ly3; cell growth or viability, WST-1; 72 h).
The EC50 of `Oc1cccc(-c2cccc(O)n2)n1.[Cl-].[Cl-].[Ru+2].c1ccc(-c2ccnc3c2ccc2c(-c4ccccc4)ccnc23)cc1.c1ccc(-c2ccnc3c2ccc2c(-c4ccccc4)ccnc23)cc1` is reported as 0.25 µM (MDA-MB-231; CCK-8 viability; white light 2 h).
For `Cc1nn(-c2cccc(N)c2)c(=O)c2cnc(Nc3ccc(N4CCNCC4)cc3)nc12`, the IC50 was greater than 10 µM (PDGFRA (Homo sapiens, UniProt P16234, D842V); kinase activity, inhibitor, SelectScreen kinase profiling).
For `CC(C)(C)c1cc(-c2ccc3cc4ccccc4nc3n2)nc(-c2ccc3cc4ccccc4nc3n2)c1.Cc1ccncc1.[Cl-].[Cl-].[Ru+2].c1ccc2cc3nc4c5cccnc5c5ncccc5c4nc3cc2c1`, the EC50 was 12.1 µM (A-375; resazurin; with: light 523 nm, 20 mW, 100 J/cm2).
`Cc1ncsc1-c1ccc(C(C)NC(=O)C2CC(O)CN2C(=O)C(NC(=O)CCCCCCCCCCN2CCCC(Nc3ncc(Cl)c(Nc4ccccc4S(=O)(=O)C(C)C)n3)C2)C(C)(C)C)cc1` (stereo not shown) — result for “log2 fold change”: -1.95 (22Rv1; RNA-seq, measured: ZNF879 mRNA; concentration not given; reference: DMSO).
`CCCCCCCCCCCC(=O)N[C@@H](CO)C[C@@H](O)c1cccc(CCCCCC)c1` has a sphingomyelin level of 44500 pmol/sample and 61100 pmol/sample and 54500 pmol/sample (HeLa; CERT activity, HPLC-MS/MS lipidomics, measured: sphingomyelin 24; 1 µM, 24 h, not cell-number normalised).
`C[n+]1cccc2cc(/C=N/NC(=O)c3cccc(C(=O)N/N=C/c4ccc5c(ccc[n+]5C)c4)c3)ccc21` gave a ΔTm of 0.2 °C (hp2 hairpin duplex DNA; FRET melting; 1 µM).
The fold change of `N#Cc1cccc(/C=C/C(=O)c2ccc(O)cc2)c1` is reported as 0.033 (U-87 MG; measured: SLC10A5; concentration not given; reference: untreated).
`O=C(Nc1ccc(Sc2ccc3c(/C=C/c4ccccn4)n[nH]c3c2)cc1)Nc1ccc(F)c(F)c1` gave a GI50 of 1.02 µM (Ba/F3 TEL-VEGFR1; cell growth, CCK-8).
`O=C1CC[C@H](N2Cc3cc(-c4ccn5ncc(Cl)c5n4)ccc3C2=O)C(=O)N1` — result for “log2 fold change”: 0.0115 (MOLM-13; protein level, TMT proteomics, measured: AAGAB; 1 µM, 6 h; reference: DMSO).
`COC(=O)c1cc(NC2=NC(=O)C(=Cc3ccc(N(C)C)cc3)S2)ccc1OC(C)=O` has a metabolite level of -0.14 fold change (MCF7; GC-MS, measured: Dl-Phenylalanine; 1 µM; reference: DMSO).
The EC50 of `[Cl-].[Cl-].[Ru+2].c1cc(-c2ccc3cccnc3n2)nc(-c2ccc3cccnc3n2)c1.c1ccc2cc3nc4c5cccnc5c5ncccc5c4nc3cc2c1` is reported as 14 µM (A-375; resazurin; with: light 523 nm, 20 mW, 100 J/cm2).
For `C=C1CC2(C(=O)OC)C=C(C(=O)OC(C)(C)C)C(=O)C1C2` (stereo not shown), “luminescence relative to PMA” read 0.653 (AP-1 reporter HEK293; AP-1 reporter gene, luciferase reporter; 3 µM, 6 h, with: PMA 6 ng/mL; reference: PMA alone).
`COc1ccccc1-c1ccncc1C(=O)Nc1nnc(OCc2ccc(Cl)cc2)s1` — result for “γH2AX foci-positive nuclei”: 24.2% and 21% and 23% (DLD-1 BRCA2 wild-type; immunofluorescence; 5 µM, 96 h, >5 foci per nucleus).
For `C=CC(=O)Nc1cccc(Cn2ncc3cnc(Nc4cnn(CCOC)c4)nc32)c1`, “percent of control” read 71% (MELK human; binding, KINOMEscan; 100 nM; lower = stronger binding).
`Cn1ncc2cc(-c3cncc(Cl)c3N3CCC4(CCNC4=O)CC3)ccc21` — result for “log2 fold change”: 4.72 (LS174T; gene expression, microarray, measured: CCL20 mRNA; concentration not given, 24 h; reference: untreated cells).
With `CCc1c(-c2ccc3[nH]ncc3c2)cnc(N)c1-c1ccc(O)cc1` the viability was 102% (CHP-212; cell growth or viability, SRB; 0.1953 µM).
`CN(C)c1ccc(-n2cc(COC(=O)[C@@]3(C)C=C(C(=O)OC(C)(C)C)C(=O)CC3)nn2)cc1` gave a luminescence of 7240 a.u. (AP-1 reporter HEK293; AP-1 reporter gene, luciferase reporter; 3 µM, 6 h, with: PMA 6 ng/mL; higher = more transcription).
For `CC(=O)OC[C@H]1O[C@@H](n2cc(CSc3nc4ccccc4n3Cc3cn([C@@H]4O[C@H](COC(C)=O)[C@@H](OC(C)=O)C(OC(C)=O)[C@H]4OC(C)=O)nn3)nn2)[C@H](OC(C)=O)C(OC(C)=O)[C@@H]1OC(C)=O` (stereo in doubt), the cytotoxicity was 68.3% (MDA-MB-231; MTT; 7.81 ppm).
With `CC(C)c1ccc(N(C)c2ccc3c(c2)OCC[C@H]3CNc2cnccc2C(=O)O)cc1` the IC50 was 0.0102 µM (NCI-H508; cell growth or viability, ATP luminescence; 7 days).
For `CCN(CC)CC(=O)Nc1cccc(-n2cc(-c3ccc4ccc(-c5cn(-c6cccc(NC(=O)CN(CC)CC)c6)nn5)cc4c3)nn2)c1`, the fold regulation was 1.17 (RCC4; PCR angiogenesis array, measured: ITGAV; 5 x IC50, 2 h, normoxia; reference: untreated).
With `CC(C)C[C@@H]1NC(=O)[C@H](CC(C)C)NC(=O)[C@H](Cc2c[nH]c3ccccc23)NC(=O)[C@H](CO)NC(=O)[C@H](Cc2c[nH]c3ccccc23)NC(=O)[C@@H]2CCCN2C(=O)[C@H](CC(C)C)NC(=O)[C@H](Cc2c[nH]cn2)NC(=O)[C@@H]2CCCN2C(=O)[C@H](CC(N)=O)NC(=O)[C@H](C)NC(=O)[C@H](Cc2ccc(O)cc2)NC(=O)[C@H](CS)NC(=O)[C@H](CCCCNC(=O)CN2CCN(CC(=O)O)CCN(CC(=O)O)CCN(CC(=O)O)CC2)NC1=O` [lutetium-177 labelled] the dead cells was 24.2% (4T1; flow cytometry; 0.4 Bq/cell, 24 h).
The IC50 of `CNS(=O)(=O)Nc1nccc(Cc2c(C)c3ccc(Oc4ncccc4F)cc3oc2=O)c1F` is reported as greater than 1 µM (HLE; cell viability; 7 days).

For quick reference, copied from above:
`CCCCCCCCCCCC(=O)N[C@@H](CO)C[C@@H](O)c1cccc(CCCCCC)c1` has a sphingomyelin level of 44500 pmol/sample and 61100 pmol/sample and 54500 pmol/sample (HeLa; CERT activity, HPLC-MS/MS lipidomics, measured: sphingomyelin 24; 1 µM, 24 h, not cell-number normalised).
`C[n+]1cccc2cc(/C=N/NC(=O)c3cccc(C(=O)N/N=C/c4ccc5c(ccc[n+]5C)c4)c3)ccc21` gave a ΔTm of 0.2 °C (hp2 hairpin duplex DNA; FRET melting; 1 µM).
